Measured values pooled from the literature.
A part holds a random share of what one study measured.
UniProt P36894, sequence (whole entry, looked up): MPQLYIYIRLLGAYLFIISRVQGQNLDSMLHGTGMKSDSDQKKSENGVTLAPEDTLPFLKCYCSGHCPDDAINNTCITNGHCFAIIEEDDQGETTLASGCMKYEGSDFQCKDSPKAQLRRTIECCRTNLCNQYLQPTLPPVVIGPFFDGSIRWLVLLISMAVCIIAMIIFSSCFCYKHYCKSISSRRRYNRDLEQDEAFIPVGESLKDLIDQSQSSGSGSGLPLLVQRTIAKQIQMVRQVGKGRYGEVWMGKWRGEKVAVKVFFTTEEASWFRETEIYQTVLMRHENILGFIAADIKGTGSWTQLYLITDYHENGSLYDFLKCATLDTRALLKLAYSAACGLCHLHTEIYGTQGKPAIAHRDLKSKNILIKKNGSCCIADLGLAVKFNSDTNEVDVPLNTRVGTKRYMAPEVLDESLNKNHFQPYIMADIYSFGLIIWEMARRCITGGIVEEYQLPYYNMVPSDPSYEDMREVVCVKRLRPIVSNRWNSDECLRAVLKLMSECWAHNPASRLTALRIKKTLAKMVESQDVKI
UniProt Q8NEB9, sequence (whole entry, looked up): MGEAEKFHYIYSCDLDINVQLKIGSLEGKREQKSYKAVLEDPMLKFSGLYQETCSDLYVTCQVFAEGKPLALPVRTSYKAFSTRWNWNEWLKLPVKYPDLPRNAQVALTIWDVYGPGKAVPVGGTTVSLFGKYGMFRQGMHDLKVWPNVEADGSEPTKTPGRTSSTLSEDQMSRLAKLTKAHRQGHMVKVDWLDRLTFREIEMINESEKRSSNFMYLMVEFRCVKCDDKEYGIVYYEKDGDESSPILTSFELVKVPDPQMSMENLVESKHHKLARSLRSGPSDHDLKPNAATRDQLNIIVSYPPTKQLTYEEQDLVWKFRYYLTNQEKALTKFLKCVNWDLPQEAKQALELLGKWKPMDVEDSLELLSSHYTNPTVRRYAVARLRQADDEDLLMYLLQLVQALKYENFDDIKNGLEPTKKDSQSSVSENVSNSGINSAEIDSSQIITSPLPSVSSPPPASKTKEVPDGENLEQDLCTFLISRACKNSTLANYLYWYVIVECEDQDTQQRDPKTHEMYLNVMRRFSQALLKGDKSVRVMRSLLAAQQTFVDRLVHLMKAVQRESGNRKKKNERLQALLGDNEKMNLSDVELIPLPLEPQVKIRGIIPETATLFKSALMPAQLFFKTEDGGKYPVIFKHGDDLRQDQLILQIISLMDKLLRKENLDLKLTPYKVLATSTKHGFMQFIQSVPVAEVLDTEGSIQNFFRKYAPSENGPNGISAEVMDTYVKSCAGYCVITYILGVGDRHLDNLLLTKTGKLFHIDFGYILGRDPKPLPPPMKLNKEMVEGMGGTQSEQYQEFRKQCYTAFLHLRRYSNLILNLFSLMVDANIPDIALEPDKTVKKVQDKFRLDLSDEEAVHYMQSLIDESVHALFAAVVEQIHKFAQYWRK
UniProt Q96PN8, sequence (whole entry, looked up): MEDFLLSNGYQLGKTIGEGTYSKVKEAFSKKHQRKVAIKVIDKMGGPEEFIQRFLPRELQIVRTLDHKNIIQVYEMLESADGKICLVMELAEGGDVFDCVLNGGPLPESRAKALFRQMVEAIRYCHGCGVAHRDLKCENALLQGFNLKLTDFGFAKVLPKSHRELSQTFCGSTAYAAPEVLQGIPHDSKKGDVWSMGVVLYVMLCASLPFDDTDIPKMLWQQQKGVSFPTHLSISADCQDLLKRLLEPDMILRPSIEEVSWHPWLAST
UniProt Q15746, sequence (whole entry, looked up): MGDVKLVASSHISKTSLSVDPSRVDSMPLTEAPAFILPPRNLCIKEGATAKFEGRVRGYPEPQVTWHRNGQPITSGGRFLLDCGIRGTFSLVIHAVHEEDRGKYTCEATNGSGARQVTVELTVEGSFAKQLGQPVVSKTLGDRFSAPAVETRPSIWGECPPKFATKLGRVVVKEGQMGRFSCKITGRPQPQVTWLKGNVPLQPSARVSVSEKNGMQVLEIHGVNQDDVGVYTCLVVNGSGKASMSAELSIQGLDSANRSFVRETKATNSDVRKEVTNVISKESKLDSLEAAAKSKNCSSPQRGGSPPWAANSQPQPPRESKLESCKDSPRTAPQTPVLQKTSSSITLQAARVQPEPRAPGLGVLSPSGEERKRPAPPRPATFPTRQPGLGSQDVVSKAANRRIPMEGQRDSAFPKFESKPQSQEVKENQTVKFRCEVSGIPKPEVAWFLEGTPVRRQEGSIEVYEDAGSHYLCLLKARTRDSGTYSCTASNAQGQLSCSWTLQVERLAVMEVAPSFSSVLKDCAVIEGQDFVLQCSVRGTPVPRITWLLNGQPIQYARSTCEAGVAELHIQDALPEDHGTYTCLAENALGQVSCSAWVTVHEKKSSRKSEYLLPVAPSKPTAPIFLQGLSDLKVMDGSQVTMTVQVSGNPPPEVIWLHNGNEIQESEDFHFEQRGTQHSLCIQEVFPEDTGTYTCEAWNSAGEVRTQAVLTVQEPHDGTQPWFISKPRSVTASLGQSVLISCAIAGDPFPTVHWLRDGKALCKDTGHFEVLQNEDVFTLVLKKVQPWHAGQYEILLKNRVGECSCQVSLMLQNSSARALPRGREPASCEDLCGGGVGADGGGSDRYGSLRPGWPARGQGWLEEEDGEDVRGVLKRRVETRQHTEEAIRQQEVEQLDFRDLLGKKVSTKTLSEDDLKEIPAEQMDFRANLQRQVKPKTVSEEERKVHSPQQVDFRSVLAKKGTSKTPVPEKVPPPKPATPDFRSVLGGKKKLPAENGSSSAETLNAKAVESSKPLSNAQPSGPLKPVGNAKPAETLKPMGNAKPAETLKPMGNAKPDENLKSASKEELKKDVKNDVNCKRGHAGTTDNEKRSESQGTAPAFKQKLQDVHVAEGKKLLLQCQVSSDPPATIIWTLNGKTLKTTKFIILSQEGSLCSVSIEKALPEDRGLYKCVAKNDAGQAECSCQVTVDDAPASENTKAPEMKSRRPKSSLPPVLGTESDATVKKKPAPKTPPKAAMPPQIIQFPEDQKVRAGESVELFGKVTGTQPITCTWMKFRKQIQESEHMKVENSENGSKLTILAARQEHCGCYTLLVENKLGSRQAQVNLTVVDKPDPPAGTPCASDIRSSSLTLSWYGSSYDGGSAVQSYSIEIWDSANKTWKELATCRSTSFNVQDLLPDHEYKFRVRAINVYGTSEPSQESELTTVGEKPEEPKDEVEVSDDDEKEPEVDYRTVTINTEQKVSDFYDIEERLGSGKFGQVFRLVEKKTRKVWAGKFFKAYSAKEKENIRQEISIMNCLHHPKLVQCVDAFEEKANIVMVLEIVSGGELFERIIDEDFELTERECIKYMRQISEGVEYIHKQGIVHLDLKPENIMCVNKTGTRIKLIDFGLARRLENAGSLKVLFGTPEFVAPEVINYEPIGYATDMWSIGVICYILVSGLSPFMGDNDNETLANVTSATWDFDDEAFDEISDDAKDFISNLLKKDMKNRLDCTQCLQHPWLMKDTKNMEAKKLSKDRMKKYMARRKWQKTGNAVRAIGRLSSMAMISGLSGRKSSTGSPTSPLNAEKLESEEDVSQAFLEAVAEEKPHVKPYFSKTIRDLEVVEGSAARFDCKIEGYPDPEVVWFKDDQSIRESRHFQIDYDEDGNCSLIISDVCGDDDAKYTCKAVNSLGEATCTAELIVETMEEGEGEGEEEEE
UniProt Q13976, sequence (whole entry, looked up): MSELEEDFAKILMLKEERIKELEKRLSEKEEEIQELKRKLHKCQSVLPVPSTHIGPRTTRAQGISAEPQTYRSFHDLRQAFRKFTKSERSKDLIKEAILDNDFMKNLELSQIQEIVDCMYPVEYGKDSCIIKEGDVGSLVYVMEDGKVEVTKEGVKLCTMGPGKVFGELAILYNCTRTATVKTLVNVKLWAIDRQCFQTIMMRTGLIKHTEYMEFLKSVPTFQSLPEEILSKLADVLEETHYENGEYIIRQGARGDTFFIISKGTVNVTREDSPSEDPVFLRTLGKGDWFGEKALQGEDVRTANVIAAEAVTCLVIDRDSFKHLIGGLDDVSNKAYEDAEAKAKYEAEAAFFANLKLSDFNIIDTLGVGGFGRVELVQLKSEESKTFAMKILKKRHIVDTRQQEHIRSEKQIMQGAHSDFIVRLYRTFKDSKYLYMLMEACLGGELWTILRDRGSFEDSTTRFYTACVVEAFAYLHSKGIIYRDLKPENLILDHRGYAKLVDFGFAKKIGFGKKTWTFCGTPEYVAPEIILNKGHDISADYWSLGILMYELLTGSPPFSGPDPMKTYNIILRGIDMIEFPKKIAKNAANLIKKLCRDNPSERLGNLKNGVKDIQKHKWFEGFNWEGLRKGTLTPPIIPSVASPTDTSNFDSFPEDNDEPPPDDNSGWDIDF

Study 1
SMILES: O=C(NCc1ncc(C(F)(F)F)cc1Cl)c1ccc2c(c1)C1(CCS(=O)(=O)CC1)[C@@H](C1CC1)N2S(=O)(=O)c1ccc(F)cc1
Technique: competition with immobilised ligand
Tested at: 1 µM
Quantity: remaining binding
TESK1 (Homo sapiens, UniProt Q15569); cell-free assay: 85%
CDK14 (Homo sapiens, UniProt O94921); cell-free assay: 100%
MYLK (Homo sapiens, UniProt Q15746); cell-free assay: 74%
PRKG1 (Homo sapiens, UniProt Q13976); cell-free assay: 100%
BRAF (Homo sapiens, UniProt P15056, V600E); cell-free assay: 90%
PLK2 (Homo sapiens, UniProt Q9NYY3); cell-free assay: 74%
BMPR1A (Homo sapiens, UniProt P36894); binding: 100%
SGK3 (Homo sapiens, UniProt Q96BR1); cell-free assay: 83%
TSSK3 (Homo sapiens, UniProt Q96PN8); cell-free assay: 97%
LRRK2 (Homo sapiens, UniProt Q5S007, G2019S); cell-free assay: 100%
MYLK4 (Homo sapiens, UniProt Q86YV6); cell-free assay: 95%
PRKCE (Homo sapiens, UniProt Q02156); cell-free assay: 76%
EGFR (Homo sapiens, UniProt P00533, del747-752/P753S); cell-free assay: 85%
CDK11B (Homo sapiens, UniProt P21127); cell-free assay: 100%
CAMK1G (Homo sapiens, UniProt Q96NX5); cell-free assay: 100%
PIK3C3 (Homo sapiens, UniProt Q8NEB9); cell-free assay: 89%
PIK3CD (Homo sapiens, UniProt O00329); cell-free assay: 67%
MAP2K6 (Homo sapiens, UniProt P52564); cell-free assay: 100%
ROCK2 (Homo sapiens, UniProt O75116); cell-free assay: 93%

Study 2
Target: Tyrosine-protein kinase Fyn (FYN, Homo sapiens, UniProt P06241)
UniProt P06241, sequence (whole entry, looked up): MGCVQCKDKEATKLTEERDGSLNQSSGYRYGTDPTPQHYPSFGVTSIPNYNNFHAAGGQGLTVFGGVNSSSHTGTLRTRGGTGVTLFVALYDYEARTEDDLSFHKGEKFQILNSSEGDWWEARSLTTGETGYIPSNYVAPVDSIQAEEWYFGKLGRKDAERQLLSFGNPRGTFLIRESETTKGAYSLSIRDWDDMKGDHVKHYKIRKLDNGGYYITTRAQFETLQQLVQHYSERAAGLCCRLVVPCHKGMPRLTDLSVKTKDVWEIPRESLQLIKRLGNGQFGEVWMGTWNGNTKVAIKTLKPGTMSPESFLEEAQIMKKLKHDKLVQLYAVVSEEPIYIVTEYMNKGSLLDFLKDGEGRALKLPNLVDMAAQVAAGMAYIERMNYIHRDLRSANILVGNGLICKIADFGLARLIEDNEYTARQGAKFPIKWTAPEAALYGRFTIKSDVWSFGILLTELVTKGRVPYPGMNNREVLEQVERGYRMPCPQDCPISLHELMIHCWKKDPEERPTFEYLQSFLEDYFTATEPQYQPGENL
Observed: enzyme activity
Action: inhibitor
Tested at: 0.5 µM
Reference: control
Quantity: remaining activity
Cc1ccc(NC2=CC(=O)c3sc(C)nc3C2=O)cc1: 95.6%
O=C1NC(=O)C(c2c[nH]c3ccccc23)=C1c1c[nH]c2ccccc12: 101%
O=C1Cc2c([nH]c3ccc([N+](=O)[O-])cc23)-c2ccccc2N1: 53.1%
O=S(=O)(NCCNC/C=C/c1ccc(Br)cc1)c1cccc2cnccc12: 107%
COc1ccc(S(=O)(=O)N(CCO)c2ccccc2CN(C)CC=Cc2ccc(Cl)cc2)cc1: 103%
Cc1cc(Nc2nc(-c3ccccc3)nc3ccccc23)n[nH]1: 40%
NC(=O)c1ccc(N(C(N)=O)c2c(F)cccc2F)nc1-c1ccc(F)cc1F: 110%

Study 3
Cell line: HaCaT
Tested at: 100 µM
Time: 60 h
Quantity: viability
CNC1CCCN(c2c(F)cc3c(=O)c(C(=O)O)cn(C4CC4)c3c2OC)C1 (centres unmarked): 129%
COc1cc(C[C@H]2C(=O)OC[C@@H]2Cc2ccc(OC)c(OC)c2)ccc1O: 121%
NCCc1c[nH]cn1: 135%
O=C(O)C[C@H](O)C[C@H](O)/C=C/c1c(C2CC2)nc2ccccc2c1-c1ccc(F)cc1: 19.1%
O=c1ccc2cc3ccoc3cc2o1: 111%
CCCCCCCCCCCCCCCCCCCCCCO: 136%
COc1cc2ccc(=O)oc2cc1OC: 97.8%
C#C[C@]1(O)CC[C@H]2[C@@H]3CCc4cc(O)ccc4[C@H]3CC[C@@]21C: 15.8%

Study 4
Cell line: mouse MPNST tumor cells
Technique: high-content immunofluorescence imaging
Measured: nuclear SOX9
Tested at: 10 µM
Time: 12 h
Notes: mean of 2 replicates
Reference: DMSO control
Direction: higher = more nuclear SOX9
Quantity: nuclear SOX9 intensity
C[N+](C)(CCOc1ccccc1)Cc1ccccc1.O=C([O-])c1cc2ccccc2cc1O: 85.6 % of DMSO
CCCc1nc(C)c2c(=O)nc(-c3cc(S(=O)(=O)N4CCN(CC)CC4)ccc3OCC)[nH]n12: 120 % of DMSO
CCOC(=O)[C@@](C)(N)Cc1ccc(O)c(O)c1: 94.4 % of DMSO
CC1(C)O[C@@H]2C[C@H]3[C@@H]4C[C@H](F)C5=CC(=O)C=C[C@]5(C)[C@@]4(F)[C@@H](O)C[C@]3(C)[C@]2(C(=O)CO)O1: 68.9 % of DMSO
CC(C)Oc1ccc(Cc2ccc(NC3=NCCN3)cc2)cc1: 212 % of DMSO
CC(N)C12CC3CC(CC(C3)C1)C2 (centres unmarked): 106 % of DMSO

Mixed results
COc1ccc(-c2c(Nc3ccccn3)[nH]c3c(C4=CCCCC4)c(-c4ccccc4)nn3c2=O)cc1 — AUC over dosing interval (LC-MS/MS non-compartmental; human, plasma; oral, 200 mg twice daily, cycle 1): 124 µg·h/mL

A few entries again (study 2):
Cc1cc(Nc2nc(-c3ccccc3)nc3ccccc23)n[nH]1: 40%
O=C1Cc2c([nH]c3ccc([N+](=O)[O-])cc23)-c2ccccc2N1: 53.1%
NC(=O)c1ccc(N(C(N)=O)c2c(F)cccc2F)nc1-c1ccc(F)cc1F: 110%
COc1ccc(S(=O)(=O)N(CCO)c2ccccc2CN(C)CC=Cc2ccc(Cl)cc2)cc1: 103%
O=S(=O)(NCCNC/C=C/c1ccc(Br)cc1)c1cccc2cnccc12: 107%
O=C1NC(=O)C(c2c[nH]c3ccccc23)=C1c1c[nH]c2ccccc12: 101%
